# Measured values of several laboratories.
# Lines come from different studies, so protocols differ. ± gives the spread as reported.
# Organism: influenza A virus
Compound,assay,test system,conditions,scale,quantity,result
Cc1nc2n(n1)C(C)(O)C([N+](=O)[O-])=NN2 (stereo not shown),,"MDCK, A/Puerto Rico/8/34 (H1N1)",,baseline: CC50 over IC50,selectivity index,3
COc1cc(-c2oc3cc(O[C@@H]4O[C@@H](C)[C@H](O)[C@@H](O)[C@H]4O)cc(O)c3c(=O)c2O[C@@H]2O[C@H](CO[C@@H]3O[C@@H](C)[C@H](O)[C@@H](O)[C@H]3O)[C@@H](O)[C@H](OC(C)=O)[C@H]2O)ccc1O,hemagglutination,virus panel,range over panel,,IC50,27.3 to 152 µM
CCOC(=O)c1cnn2c1NN=C([N+](=O)[O-])C2(O)CC (stereo not shown),,"MDCK, A/Puerto Rico/8/34 (H1N1)",,baseline: CC50 over IC50,selectivity index,3
COc1cc(-c2oc3cc(O)cc(O)c3c(=O)c2O[C@@H]2O[C@H](CO)[C@@H](O)[C@H](O)[C@H]2OC(=O)c2cc(O)c(O)c(O)c2)ccc1O,hemagglutination,A/Vladivostok/2/09 (H1N1),,,IC50,185 ± 5.5 µM
O=C1/C(=N\NC(=S)NN=Cc2cccs2)c2ccccc2N1Cc1ccccc1,"cytopathic effect, visual CPE score","MDCK, H1N1",,,EC50,> 4 µM
Cc1cn(C2CC(N(C)C)C(CO)O2)c(=O)[nH]c1=O (stereo not shown),viral cytopathic effect,"MDCK, H1N1",,,EC50,> 0.37 µM
c1nc(N2CCCCC2)ncc1CNC12CC3CC(CC(C3)C1)C2,cytopathic effect,"MDCK, A/WSN/33 H1N1",48 h,,EC50,1.5 ± 0.6 µM
CCOC(=O)c1nc2n(n1)C(O)(CC)C([N+](=O)[O-])=NN2 (stereo not shown),,"MDCK, A/Puerto Rico/8/34 (H1N1)",,baseline: CC50 over IC50,selectivity index,1
OC12CC3CC(C1)CC(NCc1cnc(N4CCCCC4)nc1)(C3)C2,"viral replication, plaque reduction",A/California/07/2009 H1N1,,,EC50,4.7 ± 0.8 µM
COc1cc(-c2oc3cc(O)cc(O)c3c(=O)c2O[C@@H]2O[C@H](CO)[C@@H](O)[C@H](OC(C)=O)[C@H]2O)ccc1O,hemagglutination,virus panel,range over panel,,IC50,40.8 to 157 µM
Cc1cc(-c2ccccc2)n2nc(-c3nc4sc5c(c4c(=O)o3)CCCCC5)nc2n1,"plaque formation, plaque reduction","MDCK, A/PR/8/34",,,EC50,26 ± 1 µM
CCCCCCCCCC(=O)OCC1OC(n2cc(C)c(=O)[nH]c2=O)CC1N(C)C (stereo not shown),viral cytopathic effect,"MDCK, H1N1",,,EC50,> 0.23 µM
CCOC(=O)c1nc2n(n1)C(C)(O)C([N+](=O)[O-])=NN2 (stereo not shown),,"MDCK, A/Puerto Rico/8/34 (H1N1)",,baseline: CC50 over IC50,selectivity index,1
Cc1cc(-c2ccccc2)nc2nc(-c3nc4sc5c(c4c(=O)o3)CCCCC5)nn12,"plaque formation, plaque reduction","MDCK, A/PR/8/34",,,EC50,40 ± 6 µM
CCC1(O)C([N+](=O)[O-])=NNc2nc(C)nn21 (stereo not shown),,"MDCK, A/Puerto Rico/8/34 (H1N1)",,baseline: CC50 over IC50,selectivity index,4
c1nc(N2CCCCCC2)cnc1CNC12CC3CC(CC(C3)C1)C2,cytopathic effect,"MDCK, A/WSN/33 H1N1",48 h,,EC50,1.9 µM

# A few entries again:
Compound,assay,test system,conditions,scale,quantity,result
c1nc(N2CCCCC2)ncc1CNC12CC3CC(CC(C3)C1)C2,cytopathic effect,"MDCK, A/WSN/33 H1N1",48 h,,EC50,1.5 ± 0.6 µM
